Measurements pooled from the literature.
Each numbered part is a random draw from the data of one study; scales do not carry over between parts. Values joined by “and” are separate records of one study, mostly repeats; a detail may differ. Changes are numbered by the printed parent chain.
Sequence of UniProt P62344 (whole entry, looked up): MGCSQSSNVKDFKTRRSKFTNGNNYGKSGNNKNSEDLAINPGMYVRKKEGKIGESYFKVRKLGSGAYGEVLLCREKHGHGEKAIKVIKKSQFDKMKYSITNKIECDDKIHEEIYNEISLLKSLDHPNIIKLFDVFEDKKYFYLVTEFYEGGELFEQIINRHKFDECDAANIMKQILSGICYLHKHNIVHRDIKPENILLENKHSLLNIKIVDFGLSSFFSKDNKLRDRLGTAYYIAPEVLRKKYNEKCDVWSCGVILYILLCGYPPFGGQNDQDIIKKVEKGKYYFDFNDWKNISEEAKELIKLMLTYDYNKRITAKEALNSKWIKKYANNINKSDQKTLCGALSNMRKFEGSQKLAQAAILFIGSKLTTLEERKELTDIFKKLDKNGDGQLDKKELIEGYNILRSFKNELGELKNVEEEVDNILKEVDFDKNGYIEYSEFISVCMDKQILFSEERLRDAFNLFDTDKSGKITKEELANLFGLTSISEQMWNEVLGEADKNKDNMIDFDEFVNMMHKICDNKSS
Sequence of UniProt P61075 (whole entry, looked up): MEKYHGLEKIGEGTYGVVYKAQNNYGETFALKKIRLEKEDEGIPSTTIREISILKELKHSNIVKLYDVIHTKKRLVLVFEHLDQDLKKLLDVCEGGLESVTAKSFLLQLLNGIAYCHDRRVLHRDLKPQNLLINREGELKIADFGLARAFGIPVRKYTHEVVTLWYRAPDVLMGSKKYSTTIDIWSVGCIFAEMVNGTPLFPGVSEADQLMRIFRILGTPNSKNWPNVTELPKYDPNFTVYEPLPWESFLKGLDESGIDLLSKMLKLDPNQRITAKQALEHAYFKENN
Sequence of UniProt P29376 (whole entry, looked up): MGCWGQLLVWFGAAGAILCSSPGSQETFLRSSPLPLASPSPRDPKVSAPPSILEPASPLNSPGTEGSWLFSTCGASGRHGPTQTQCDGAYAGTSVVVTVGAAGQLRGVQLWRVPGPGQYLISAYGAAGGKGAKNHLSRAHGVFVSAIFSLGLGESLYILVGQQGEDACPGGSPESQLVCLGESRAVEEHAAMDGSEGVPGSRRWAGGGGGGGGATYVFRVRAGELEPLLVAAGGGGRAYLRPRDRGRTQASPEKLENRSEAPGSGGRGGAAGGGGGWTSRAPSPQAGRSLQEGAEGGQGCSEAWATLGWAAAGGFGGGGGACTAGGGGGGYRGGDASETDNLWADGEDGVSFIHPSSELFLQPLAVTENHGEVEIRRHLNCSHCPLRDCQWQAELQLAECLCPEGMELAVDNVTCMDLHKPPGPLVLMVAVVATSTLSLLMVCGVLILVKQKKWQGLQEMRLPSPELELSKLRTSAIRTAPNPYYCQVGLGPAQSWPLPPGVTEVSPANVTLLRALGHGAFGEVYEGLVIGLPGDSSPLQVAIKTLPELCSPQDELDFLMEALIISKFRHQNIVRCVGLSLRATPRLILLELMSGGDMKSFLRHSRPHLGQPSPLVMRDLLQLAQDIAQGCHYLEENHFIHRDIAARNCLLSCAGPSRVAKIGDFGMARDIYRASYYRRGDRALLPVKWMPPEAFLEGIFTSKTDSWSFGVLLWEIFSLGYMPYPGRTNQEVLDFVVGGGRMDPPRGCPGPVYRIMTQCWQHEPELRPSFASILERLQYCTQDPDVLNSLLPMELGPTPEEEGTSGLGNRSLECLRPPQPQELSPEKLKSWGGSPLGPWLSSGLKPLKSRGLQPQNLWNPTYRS
Sequence of UniProt P9WI81 (whole entry, looked up): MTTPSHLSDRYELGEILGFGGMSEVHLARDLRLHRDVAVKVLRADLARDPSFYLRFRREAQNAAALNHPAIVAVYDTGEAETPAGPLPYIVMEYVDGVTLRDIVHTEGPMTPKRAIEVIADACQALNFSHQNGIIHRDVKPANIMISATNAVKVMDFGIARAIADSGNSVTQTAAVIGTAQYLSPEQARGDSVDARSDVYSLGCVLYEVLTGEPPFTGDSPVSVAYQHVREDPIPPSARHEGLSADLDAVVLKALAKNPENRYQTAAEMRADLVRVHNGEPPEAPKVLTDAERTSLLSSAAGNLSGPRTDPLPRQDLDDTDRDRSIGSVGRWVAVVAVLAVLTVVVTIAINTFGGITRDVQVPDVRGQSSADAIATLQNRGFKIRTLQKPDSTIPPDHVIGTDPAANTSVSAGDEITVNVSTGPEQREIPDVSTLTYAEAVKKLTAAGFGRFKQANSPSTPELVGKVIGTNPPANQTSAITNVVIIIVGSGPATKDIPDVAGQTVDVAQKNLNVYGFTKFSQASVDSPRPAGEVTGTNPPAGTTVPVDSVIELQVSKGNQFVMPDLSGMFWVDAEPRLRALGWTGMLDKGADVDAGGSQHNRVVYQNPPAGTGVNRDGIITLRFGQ
Sequence of UniProt P35372 (whole entry, looked up): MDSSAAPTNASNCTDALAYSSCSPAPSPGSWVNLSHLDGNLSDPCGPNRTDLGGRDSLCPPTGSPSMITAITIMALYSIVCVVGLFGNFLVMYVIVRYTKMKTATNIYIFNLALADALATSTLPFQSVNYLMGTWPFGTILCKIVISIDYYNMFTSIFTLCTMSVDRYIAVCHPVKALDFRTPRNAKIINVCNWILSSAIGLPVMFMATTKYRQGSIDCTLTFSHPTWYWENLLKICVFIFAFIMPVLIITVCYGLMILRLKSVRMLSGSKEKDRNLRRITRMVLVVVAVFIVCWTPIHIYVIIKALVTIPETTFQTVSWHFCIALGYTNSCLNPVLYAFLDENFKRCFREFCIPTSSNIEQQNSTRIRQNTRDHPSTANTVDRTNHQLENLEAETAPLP

Set 1 — read-out: enzyme activity; mode: inhibitor; method: radiometric; tested at: 0.5 µM; measurement: remaining activity
Target: Serine/threonine-protein kinase 33 (STK33, Homo sapiens, UniProt Q9BYT3)
Sequence of UniProt Q9BYT3 (whole entry, looked up): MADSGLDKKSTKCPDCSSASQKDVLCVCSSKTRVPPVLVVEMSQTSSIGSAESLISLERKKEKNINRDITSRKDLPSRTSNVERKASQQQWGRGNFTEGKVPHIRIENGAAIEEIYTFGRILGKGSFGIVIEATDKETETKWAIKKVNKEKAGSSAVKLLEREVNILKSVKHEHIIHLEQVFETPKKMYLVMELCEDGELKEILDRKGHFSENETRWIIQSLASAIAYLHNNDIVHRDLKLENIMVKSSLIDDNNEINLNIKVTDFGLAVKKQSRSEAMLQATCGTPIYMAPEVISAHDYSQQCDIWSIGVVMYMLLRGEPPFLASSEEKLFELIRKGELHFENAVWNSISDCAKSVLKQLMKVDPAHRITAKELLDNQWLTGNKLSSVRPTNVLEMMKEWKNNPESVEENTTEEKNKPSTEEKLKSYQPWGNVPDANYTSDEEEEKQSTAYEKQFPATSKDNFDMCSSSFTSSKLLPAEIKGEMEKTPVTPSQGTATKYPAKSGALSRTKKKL
Cn1cc(/C=C2\C(=O)Nc3ccc(S(N)(=O)=O)cc32)c2ccccc21: 46.3%
O=C1NC(=O)/C(=C/c2ccc3nccnc3c2)S1: 66.3%
CC(C)[C@H](CO)Nc1nc(Nc2cccc(Cl)c2)c2ncn(C(C)C)c2n1: 74.4%
CCOc1cc2ncnc(Nc3cccc(Br)c3)c2cc1OCC: 93.9%
CCN1/C(=C/C(C)=O)Sc2ccc(OC)cc21: 57.4%
COc1cc2ncnc(N3CCN(C(=O)Nc4ccc(Oc5ccccc5)cc4)CC3)c2cc1OC: 94.7%
CN(C)CCCn1cc(C2=C(c3c[nH]c4ccccc34)C(=O)NC2=O)c2ccccc21: 62.9%
COc1ccc(-c2cnc3c(-c4ccsc4)cnn3c2)cc1: 71.6%
CC(=O)O/N=C1/C(c2c(O)[nH]c3cc(Br)ccc23)=Nc2ccccc21: 70.3%
CCC(=O)Nc1ccc2ncnc(Nc3cccc(Br)c3)c2c1: 94.1%
O=c1cc(N2CCOCC2)oc2c1ccc1ccccc12: 97.5%
CC(C)c1nn(-c2c(Cl)cccc2Cl)c2nc(Cc3ccc(OCCO)cc3)[nH]c(=O)c12: 97.5%
O=C(Nc1ccc(Cl)cc1)c1ccccc1NCc1ccncc1: 86.4%
Cn1cnc2cc3c(Nc4cccc(Br)c4)ncnc3cc21: 99.3%
C[S+]([O-])c1ccc(-c2nc(-c3ccncc3)c(-c3ccc(F)cc3)[nH]2)cc1 (centres unmarked): 98.1%
Nc1[nH]nc2nnc(-c3c(-c4ccccc4)nn4ccccc34)cc12: 100%
COc1cc2ncc(-c3ccccc3)nc2cc1OC: 91.7%
CS(=O)(=O)CCNCc1ccc(-c2ccc3ncnc(Nc4ccc(OCc5cccc(F)c5)c(Cl)c4)c3c2)o1: 94.7%
COc1ccc(Cl)cc1NC(=O)Nc1cc(C)nc2ccccc12: 103%
COc1cc2ncnc(Nc3ccc(OCc4ccccc4)cc3)c2cc1OC: 109%

Set 2 — target: CCNB1, cyclin fold, Cln2 fusion (human); method: yeast growth competition, sequencing; medium: yeast; notes: weak parent motif; reference: not given; direction: higher = stronger binding; measurement: normalised enrichment score; starting sequence: viral docking peptide; PGASRRLFGSSAD
PGASKRLFGSSAD [R5K]: -0.126
PGASRRLFASSAD [G9A]: 1.11
PGASRRLFGASAD [S10A]: -0.0711
PGAARRLFGSSAD [S4A]: 0.578
PGASARLFGSSAD [R5A]: -0.114
PGASRALFGSSAD [R6A]: -0.162
PGASRRLFGSAAD [S11A]: 0.65
PGASRRLLGSSAD [F8L]: 0.491

Set 3 — cell line: HEK-293T/ACE2; tested at: concentration not given; time: 16 (unit not given); reference: vehicle; measurement: viability
CC(O)(CS(=O)(=O)c1ccc(F)cc1)C(=O)Nc1ccc(C#N)c(C(F)(F)F)c1 (centres unmarked): 98.3%
N#C[C@@H]1C[C@@H]2C[C@@H]2N1C(=O)[C@@H](N)C12CC3CC(CC(O)(C3)C1)C2: 103%
Cc1cc(C)cc(OCC2CNC(=O)O2)c1 (centres unmarked): 101%
Cc1cc(C(C)(C)C)c(O)c(C)c1CC1=NCCN1: 98.9%
CC1=C(C(=O)O)N2C(=O)[C@@H](NC(=O)[C@H](N)c3ccc(O)cc3)[C@H]2SC1: 102%
CC(N)C12CC3CC(CC(C3)C1)C2 (centres unmarked): 102%
CC1(C)NC(=O)N(c2ccc([N+](=O)[O-])c(C(F)(F)F)c2)C1=O: 102%

Set 4 — cell line: mouse MPNST tumor cells; method: high-content nuclear imaging; item: cell number; tested at: 10 µM; time: 12 h; notes: mean of 2 replicates; reference: plate mean; direction: higher = more cells; measurement: nuclei count
NCC1(CC(=O)O)CCCCC1: 0.722 z-score and 1.5 z-score
CN[C@@H]1[C@@H](O)[C@@H](O[C@@H]2[C@@H](O)[C@H](O[C@H]3O[C@H](CN)CC[C@H]3N)[C@@H](N)C[C@H]2N)OC[C@]1(C)O.CN[C@@H]1[C@@H](O)[C@@H](O[C@@H]2[C@@H](O)[C@H](O[C@H]3O[C@H]([C@@H](C)N)CC[C@H]3N)[C@@H](N)C[C@H]2N)OC[C@]1(C)O.CN[C@@H]1[C@@H](O)[C@@H](O[C@@H]2[C@@H](O)[C@H](O[C@H]3O[C@H]([C@@H](C)NC)CC[C@H]3N)[C@@H](N)C[C@H]2N)OC[C@]1(C)O: 1.04 z-score
CN1CCN(C(=O)OC2c3nccnc3C(=O)N2c2ccc(Cl)cn2)CC1 (centres unmarked): -0.113 z-score
CCNCC(O)c1cccc(O)c1 (centres unmarked): 1.63 z-score
NC(=O)OCCCc1ccccc1: 1.58 z-score

Other studies, line by line
N#CC1(c2ccccn2)CCN(Cc2cc(C(=O)N3CCCC3)c(=O)n3ccccc23)CC1
remaining binding (CDPK1 (Plasmodium falciparum, UniProt P62344); cell-free assay, competition with immobilised ligand; 1 µM): 84%

CCC1(c2ccc(N)cc2)CCC(=O)NC1=O (centres unmarked)
viability (HaCaT; 100 µM, 60 h): 127%

Cc1c(NC(=O)c2cc(C(N)=O)nc3cc(F)ccc23)c(C(F)(F)F)nn1Cc1ccc(C(C)(C)C)cc1
remaining binding (pknB (Mycobacterium tuberculosis, UniProt P9WI81); cell-free assay, competition with immobilised ligand; 1 µM): 95%

C[C@]12CCC(=O)C(O)=C1CC[C@@H]1[C@@H]2CC[C@]2(C)C(=O)CC[C@@H]12
viability (HaCaT; 100 µM, 60 h): 86.6%

Cc1nc(C2CCN(C(=O)c3ccc(OC(F)(F)F)cc3N)CC2)c2ncc(N3CCN(C)CC3)cc2n1
remaining binding (CRK2 (Plasmodium falciparum, UniProt P61075); cell-free assay, competition with immobilised ligand; 1 µM): 100%

C=CC(=O)N1CCC([C@@H]2CCNc3c(C(N)=O)c(-c4ccc(Oc5ccccc5)cc4)nn32)CC1
inhibition (LTK (Homo sapiens, UniProt P29376); cell-free assay; 1 µM): 0%

CNC(=O)c1cc(C(=O)N[C@H]2[C@@H]3COC[C@@H]32)cc2c1O[C@H](CF)[C@H]2c1ccccc1
inhibition (OPRM1 (Homo sapiens, UniProt P35372); binding, radioligand binding; 10 µM): -5.14%

For quick reference, copied from above (set 3):
CC1=C(C(=O)O)N2C(=O)[C@@H](NC(=O)[C@H](N)c3ccc(O)cc3)[C@H]2SC1: 102%
CC(N)C12CC3CC(CC(C3)C1)C2 (centres unmarked): 102%
CC1(C)NC(=O)N(c2ccc([N+](=O)[O-])c(C(F)(F)F)c2)C1=O: 102%
